Experimental data from different studies.
Each line is one published result; not all experiments were run side by side. ± marks the error that the study gave. Values after ≈ are worked out from the molar mass of the structure shown.
Organism: Mycobacterium tuberculosis

Compound	test	system	setting	how to read	measurement	value
O=c1c2cc(Cl)ccc2[nH]c(=S)n1Cc1ccccn1		PptT conditional knockdown			MIC90	> 100 µM
COc1ccc(-c2cc(C(F)(F)F)c3c(N)c(C(=O)Nc4c(C)cccc4C)sc3n2)cc1		H37Rv wild type	120 h		IC90	inactive
Cc1c(-c2ccc(N3CCCCC3)cc2)[nH]c2ccccc2c1=O	time-kill	H37Rv	concentration not given, 7 days		kill rate	0.05 h⁻¹
COc1ccc(CCOc2ccc(-c3ccsc3)cc2C(N)=O)cc1F		H37Rv-LP		relative to: HepG2 CC50 over Mtb IC90	selectivity index	75
Nc1c(C(=O)N2CC(F)(F)C2)sc2nc(-c3ccccc3)ccc12	growth inhibition	H37Rv LepB under-expressing			IC50	15 ± 4 µM
CN1CCN(c2ccc(Nc3nccc(-c4cccnc4)n3)cc2C(F)(F)F)CC1		H37Ra ATCC 25177	median		MIC	51 µg/mL (≈ 123 µM)
O=c1c2cc(Cl)c(CO)cc2[nH]c(=S)n1Cc1cccnc1		H37Rv			MIC90	3.6 µM (≈ 1.2 µg/mL)
COc1ccc(-c2cc(C(F)(F)F)c3c(N)c(C(=O)Nc4cc(C)cc(C)c4)sc3n2)cc1		H37Rv wild type	120 h		IC90	inactive
O=c1c2cc(Cl)ccc2[nH]c(=S)n1Cc1ccccc1		PptT conditional knockdown			MIC90	> 100 µM
NC(=O)c1cc(Br)ccc1OCCc1cccc(F)c1		H37Rv-LP		relative to: HepG2 CC50 over Mtb IC90	selectivity index	> 18
COc1ccc2[nH]c(=S)n(Cc3cccnc3)c(=O)c2c1		PptT conditional knockdown			MIC90	5.92 µM (≈ 1.77 µg/mL)
Cc1ccc(NCCc2cccc(F)c2)c(C(N)=O)c1		H37Rv-LP		relative to: HepG2 CC50 over Mtb IC90	selectivity index	0.6
COc1ccc(-c2cc(C(F)(F)F)c3c(N)c(C(=O)NC4CC5(C4)CN(C(=O)OC(C)(C)C)C5)sc3n2)cc1	growth inhibition	H37Rv LepB under-expressing			IC50	> 50 µM
Cc1ccc(NC(=O)c2ccccc2)cc1Nc1nccn1-c1cc(NC2CCCC2)ncn1		W4	120 h		MIC50	0.07 µM (≈ 0.0317 µg/mL)
COc1ccc(-c2cc(C(F)(F)F)c3c(N)c(C(=O)Nc4cccc(C)c4C)sc3n2)cc1OC	growth inhibition	H37Rv LepB under-expressing			IC50	> 100 µM
CCNC(=O)c1sc(C)nc1OCCc1cc(F)cc(F)c1	growth	H37Rv-LP	120 h		IC90	29 ± 8 µM
COC(=O)OCc1cc2[nH]c(=S)n(Cc3cccnc3)c(=O)c2cc1Cl		PptT conditional knockdown			MIC90	0.33 µM (≈ 0.129 µg/mL)
Cc1ccc(OCCc2ccc(Br)cc2)c(C(N)=O)c1	growth	H37Rv-LP	120 h		IC90	0.55 ± 0.22 µM
CC(c1cccnc1)n1c(=S)[nH]c2cc(CO)c(Cl)cc2c1=O (centres unmarked)		PptT conditional knockdown			MIC90	42 µM (≈ 14.6 µg/mL)
Cc1cccc(NC(=O)c2sc3nc(-c4ccco4)cc(C(F)(F)F)c3c2N)c1C	growth inhibition	H37Rv LepB under-expressing			IC50	> 100 µM
O=c1c2cc(Cl)ccc2[nH]c(=S)n1Cc1ccc(-c2ccccc2)nc1		PptT conditional knockdown			MIC90	2.88 µM (≈ 1.09 µg/mL)
COc1ccc(-c2cc(C(F)(F)F)c3c(N)c(C(=O)Nc4cccc(C)c4F)sc3n2)cc1	growth inhibition	H37Rv LepB under-expressing			IC50	> 100 µM
Cc1ccc(OCCc2cc(F)cc(F)c2)c(C(=O)NC(C)C)c1	growth	H37Rv-LP	120 h		IC90	19 ± 12 µM

A few entries again:
Compound	test	system	setting	how to read	measurement	value
Cc1ccc(OCCc2ccc(Br)cc2)c(C(N)=O)c1	growth	H37Rv-LP	120 h		IC90	0.55 ± 0.22 µM
COc1ccc(-c2cc(C(F)(F)F)c3c(N)c(C(=O)NC4CC5(C4)CN(C(=O)OC(C)(C)C)C5)sc3n2)cc1	growth inhibition	H37Rv LepB under-expressing			IC50	> 50 µM
CCNC(=O)c1sc(C)nc1OCCc1cc(F)cc(F)c1	growth	H37Rv-LP	120 h		IC90	29 ± 8 µM
O=c1c2cc(Cl)ccc2[nH]c(=S)n1Cc1ccccc1		PptT conditional knockdown			MIC90	> 100 µM
